Measured values of several laboratories.
Numbered parts are unrelated; each lists some results of a single study. Changes are numbered by the printed parent chain.

Series 1 — target: CCNA1, cyclin fold, Cln2 fusion (human); technique: yeast growth competition, sequencing; medium: yeast; notes: weak parent motif; relative to: not given; reading: higher = stronger binding
Parent: CDKN1B docking peptide (human); PSACRNLFGPVDH; partner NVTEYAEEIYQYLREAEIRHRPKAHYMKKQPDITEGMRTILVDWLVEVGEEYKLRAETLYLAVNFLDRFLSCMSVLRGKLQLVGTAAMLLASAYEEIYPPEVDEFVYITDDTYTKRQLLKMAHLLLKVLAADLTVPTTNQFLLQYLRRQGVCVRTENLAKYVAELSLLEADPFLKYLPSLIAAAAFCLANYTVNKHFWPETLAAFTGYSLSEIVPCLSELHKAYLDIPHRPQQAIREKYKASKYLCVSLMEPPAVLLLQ
`G9T`: “normalised enrichment score” 0.416.
Under “normalised enrichment score”, `F8H` is recorded as 0.397.
`V11W` — result for “normalised enrichment score”: 0.557.
Under “normalised enrichment score”, `R5C` is recorded as -0.00451.
Under “normalised enrichment score”, `C4L` is recorded as 0.115.
`D12Q` — result for “normalised enrichment score”: 0.496.
Under “normalised enrichment score”, `D12L` is recorded as 0.337.
`R5G`: “normalised enrichment score” 0.23.
For `V11D`, “normalised enrichment score” read 0.455.
`H13A`: “normalised enrichment score” 0.442.
`V11I`: “normalised enrichment score” 0.472.
For `P1Y`, “normalised enrichment score” read 0.216.
For `P1Q`, “normalised enrichment score” read 0.396.
For `R5N`, “normalised enrichment score” read 0.227.
For `F8I`, “normalised enrichment score” read 0.349.
Under “normalised enrichment score”, `S2E` is recorded as 0.256.
`C4K` — result for “normalised enrichment score”: 0.234.
`F8R`: “normalised enrichment score” 0.151.
Under “normalised enrichment score”, `A3L` is recorded as 0.339.

Series 2 — technique: RNA Bind-n-Seq; form: RNA; medium: in vitro; concentration: 365 nM; relative to: no-protein control; reading: higher = stronger binding
Target: RNA binding protein fox-1 homolog 2, RRM domain, GST-SBP tag (RBFOX2, Homo sapiens, UniProt O43251-10, residues 100-194)
Notes: natural RNA segment, single round, ends assumed
Shared flanks, not repeated: GGGAGUUCUACAGUCCGACGAUC … UGGAAUUCUCGGGUGCCAA
Target sequence (chain): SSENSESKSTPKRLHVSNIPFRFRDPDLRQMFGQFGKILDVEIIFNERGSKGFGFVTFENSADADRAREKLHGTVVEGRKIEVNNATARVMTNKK
`GCAAGUGAAAAGGGUGGGUCCCUCAUAGGCUAGAAUGUGCAGCUCUUUCUCCAGGUGGGAUGUAGCACCCCGAAGUAGAGCUUUCUGCUCUGCUCCUGGAAAAGGCUAGG` — result for “RBNS enrichment (R)”: 0.666.
Under “RBNS enrichment (R)”, `CAGCUGGCCGGCACAACAGGUGUUACAUCAGGGGUUUCCUGUGGCCGUUUGAACUUUGAGCAUUUAUCUAAAUUAAAUUGGCCCAGGGUUGGCUGGUGGGUCACCCAGCA` is recorded as 15.3.
`GACUGAACAUGGAUGCCGGAGCAGAGCAUCAAUUCCUUCAUAGAUUCCAAGUCACUCCUCGAUGAAGACUCUUGUUGAGACUUACUAAACACUUUAGGCGCAGUCGGGAG` — result for “RBNS enrichment (R)”: 0.476.
For `GUGCAUGUUGCCAUGAGGCCUUUCCCCAGUGUGGCCCCAGCCCGACAGGCAUGCACCAGUGCCGCCUGUGCCCACGUGUGCAGACUGUGGCUGCAGAGACCUUGCGACCA`, “RBNS enrichment (R)” read 0.355.
For `CUGGGCUCCCCCCAGUGGGAUGGGACAGGGAGGCCACACGCACUGGUGCCAAAACCAGGCCUCUGCUGCCGCCCUUCCUGGAGGCUGCCUAUGUUGGGGGGGACCCUGCC`, “RBNS enrichment (R)” read 0.482.
`GGACCCUGGUGUCUAUGGUGAAGCUGGGCCCUCCCACCCUGAGCCUUCCUAGACCCUUGGACUCUCAGAUGCAGGGCCCUUGGCUCUGGCCUCUCACCCCCAAGGCUGUC`: “RBNS enrichment (R)” 0.184.
`UUAAAAAUCGUAUGAAAGUCUACAUCAGCUGAAUUGUCCUAGCUUGAUAAGCACUUGGAGGGGGACUUGGAAGGUGAGAAAGAUACUGCAUUUUCUCAUGAGUCUCCAAG` — result for “RBNS enrichment (R)”: 0.471.
`AGAGCAUUAUUUAUUUAAAGAAUUUAUGUUUUCUAUAAAACCUUAUAACCAAGAACCUUCAGGAUGCUUGUAACCAAGUACUUUCAGGAUGCUUUUUGUAUGUAUAUCAC`: “RBNS enrichment (R)” 0.882.

Series 3 — technique: RNA Bind-n-Seq; form: RNA; medium: in vitro; concentration: not given; relative to: input RNA pool; reading: higher = stronger binding
Target: RING finger protein unkempt homolog, zinc fingers 1-6, GST-SBP tag (UNK, Homo sapiens, UniProt Q9C0B0, residues 30-357)
Notes: RNA with constant flanks, human and mouse sites, ends assumed
Shared flanks, not repeated: GGGAGUUCUACAGUCCGACGAUC … CAACAGAGGAUUGAGCAUCA
Construct (chain): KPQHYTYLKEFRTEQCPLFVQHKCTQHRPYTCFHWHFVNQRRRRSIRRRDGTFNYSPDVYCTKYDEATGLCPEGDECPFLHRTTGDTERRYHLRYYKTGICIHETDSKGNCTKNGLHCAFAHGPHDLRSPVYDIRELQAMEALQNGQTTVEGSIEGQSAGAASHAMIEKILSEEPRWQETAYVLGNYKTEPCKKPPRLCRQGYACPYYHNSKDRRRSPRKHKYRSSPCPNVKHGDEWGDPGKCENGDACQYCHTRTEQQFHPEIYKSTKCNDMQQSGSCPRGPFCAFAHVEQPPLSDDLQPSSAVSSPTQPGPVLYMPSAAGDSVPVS
With `GAAUCAGAAGUGACUCUGGGCAAGGACGUGGUUAUACUUCCAGAAACAAAGGUGGCUGAGUUUAACAAUGUGACUCCACUUUCAGAAGAAGAGGUAACCUCAGUCAAGGACAUGUCUCCG` the bound/input enrichment was 0.0993 ratio.
`UGGCUUCGGGGCGUCUACCGCUUUGCCACUGAUAGGAAUGACUUCCGGAGGAACUUGAUACUAAAUUUGGGACUCUUUGCUGCGGGAGUUUGGCUGGCCAGGAACUUGAGUGACAUUGAC` gave a bound/input enrichment of 0.169 ratio.
The bound/input enrichment of `UCCUGCAGCAACUGCAGCAUGCUGUCCGAGCGCAAGGACGUGCUCACGGCGCACCCCGCGGCCCCCGGGCCCGUGUCGAGAGUUUAUUCUAGGGACAGGAAUCAAAAAUGCGGUGCGUCU` is reported as 0.23 ratio.
`GACUACCAGGCUGCGGGCGAUGAUGAGAUCUCAUUUGACCCUGAUGACAUCAUCACCAACAUCGAGAUGAUUGACGACGGCUGGUGGCGCGGGGUGUGCAAGGGCCGGUACGGGCUCUUC` has a bound/input enrichment of 0.181 ratio.
The bound/input enrichment of `GGUGAGCUUCAUUUUCUCCAAAUUGGAGGAACCUGUGAUGAUAUUGAUGAAGCUGAUAUUCUGGUAGAUGGAUCCCUUUCUAAAGGAAUAGAACCAGCUCUAGAAGGUUCCAGACCUUUA` is reported as 0.195 ratio.
For `UUAUAAUGGGCUUUUGCACUGUUAUUAUUUUUCCUUUGGAAUGUGAAGGUCUGAAUGAGGGUUUUGAUUUUGAAUGUUUCAAUGUUUUUGAGAAGCCUUGCUUACAUUUUAUGGUGUAGU`, the bound/input enrichment was 0.419 ratio.
For `UUCAUUGAUAACUUUGGGGGCAGCACUUUUAACUGUAGUCUACUAACUUCAAAAACAAACAAACAAAACUGAAGAAAAAUAUCUAACUGCUUAACUGCUGCCGAGACCUCCACAGCAACU`, the bound/input enrichment was 0.388 ratio.
`GGAGGCUUUCACCCCGUGGGUUUCCAUGUGGUCAACAUCCUCCUGCAUGGCAGCAUCUCCAUCCUCAUGCUGGAUGUCUUCUCAGUACUGUUUGGUGGCCUACAGUACACCGGUAAAGGC` has a bound/input enrichment of 0.167 ratio.

Series 4 — target: CEBPB, bZIP domain (human); technique: DHFR protein complementation; medium: yeast; relative to: wild-type JUN-FOS pair; reading: higher = stronger binding
Notes: single substitutions, most at no-binding floor
Parent: JUN, bZIP domain (human); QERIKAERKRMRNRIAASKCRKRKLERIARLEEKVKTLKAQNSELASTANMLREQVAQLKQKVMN; partner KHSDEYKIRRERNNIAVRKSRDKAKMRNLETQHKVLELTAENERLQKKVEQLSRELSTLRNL
`A29M` has a binding fitness of -1.42 natural log.
`A46Q` has a binding fitness of -1.2 natural log.
The binding fitness of `Q41N` is reported as -1.45 natural log.
`S43H` gave a binding fitness of -1.23 natural log.
`K39S` has a binding fitness of -1.37 natural log.
`E44P` gave a binding fitness of -1.48 natural log.
The binding fitness of `K39R` is reported as -1.28 natural log.
For `K39C`, the binding fitness was -1.37 natural log.
For `R53Y`, the binding fitness was -1.25 natural log.
For `T48K`, the binding fitness was -1.08 natural log.
The binding fitness of `A46Y` is reported as -1.31 natural log.
With `L31S` the binding fitness was -1.42 natural log.
For `K34G`, the binding fitness was -1.44 natural log.
`A29T` has a binding fitness of -1.34 natural log.
With `N42C` the binding fitness was -1.5 natural log.
For `L45T`, the binding fitness was -1.48 natural log.
`K34H` has a binding fitness of -1.4 natural log.
`E33T` has a binding fitness of -1.33 natural log.
`K39I` has a binding fitness of -1.35 natural log.
With `S47G` the binding fitness was -1.29 natural log.
For `R53L`, the binding fitness was -1.21 natural log.
`L38W` has a binding fitness of -1.44 natural log.
The binding fitness of `A57S` is reported as -1.27 natural log.
The binding fitness of `L31T` is reported as -1.44 natural log.
`A40Y` gave a binding fitness of -1.45 natural log.

Excerpt of the above (series 1):
For `V11D`, “normalised enrichment score” read 0.455.
`C4K` — result for “normalised enrichment score”: 0.234.
Under “normalised enrichment score”, `D12L` is recorded as 0.337.
Under “normalised enrichment score”, `S2E` is recorded as 0.256.
For `P1Y`, “normalised enrichment score” read 0.216.
For `P1Q`, “normalised enrichment score” read 0.396.
Under “normalised enrichment score”, `A3L` is recorded as 0.339.
`D12Q` — result for “normalised enrichment score”: 0.496.
Under “normalised enrichment score”, `R5C` is recorded as -0.00451.
`R5G`: “normalised enrichment score” 0.23.
